Published values of several laboratories.
Each line is one published result; not all experiments were run side by side. Values joined by “and” are separate records of one study, mostly repeats; a detail may differ.

Compound | tested on | assay | system | conditions | scale | measurement | result
CNS(=O)(=O)Nc1nccc(Cc2c(C)c3ccc(Oc4ncccc4F)cc3oc2=O)c1F | GP2d | cell viability | – | 7 days | – | IC50 | 1.46 nM
Nc1ncc(-c2cc(-c3cnn(CC(F)(F)F)c3)ncc2F)nc1C(=O)NC1CNCC(F)C1 (stereo not drawn) | BMPR2 | KINOMEscan | – | 1 µM | relative to: DMSO control | remaining binding | 100%
Cn1ncc2cc(-c3cncc(Cl)c3N3CCC4(CCNC4=O)CC3)ccc21 | LS174T | gene expression, microarray, item: CYP27B1 mRNA | – | concentration not given, 4 h | relative to: untreated cells | log2 fold change | -1.47
C=C(NC(=O)c1csc(-c2nc3c(cc2O)-c2nc(cs2)C(=O)NC(C(C)O)C(=O)NC(=C(C)OC)c2nc(cs2)C(=O)NC2c4nc(cs4)C(=O)NC(COC(=O)c4c5c6c(cccc6n4O)COC(=O)C(OC4CC(C)(O)C(N(C)C)C(C)O4)C2OC5)c2nc-3cs2)n1)C(N)=O (stereo not drawn) | – | – | female cynomolgus monkey, plasma | intravenous, 3 mg/kg, single dose, infusion | – | Cmax | 19600 ng/mL
Cc1ncsc1-c1ccc(C(C)NC(=O)C2CC(O)CN2C(=O)C(NC(=O)CCCCCCCCCCN2CCCC(Nc3ncc(Cl)c(Nc4ccccc4S(=O)(=O)C(C)C)n3)C2)C(C)(C)C)cc1 (stereo not drawn) | 22Rv1 | RNA-seq, item: ZNF510 mRNA | – | concentration not given | relative to: DMSO | log2 fold change | -1.33
COc1ccccc1-c1ccncc1C(=O)Nc1nnc(OCc2ccc(Cl)cc2)s1 | MDA-MB-436 | – | – | 6 µM | – | colony count | 6.5 and 12.5 and 12
CC(C)c1ccc(N(C)c2ccc3c(c2)OCC[C@H]3CNc2cnccc2C(=O)O)cc1 | Daoy | cell viability, CellTiter-Glo | – | 7 days | – | IC50 | ≥ 10000 nM
COC1CN([C@H]2CC[C@H]([C@@]3(C)Oc4c(Cl)cc(C(=O)NCc5c(SC)cc(C)[nH]c5=O)c(C)c4O3)CC2)C1 | – | RNA-seq, item: STARD10 mouse homolog | mouse, HT-1376 xenograft, whole blood | dose not given | relative to: vehicle | log2 fold change | 0.288
CN1CCCNC(=O)c2cccc(c2)C(=O)NCCCN(C)CCCNc2cccc3c2C(=O)c2cccc(c2C3=O)NCCC1 | SAS | RNA-Seq, item: HSPA5 mRNA | – | 1 µM, 6 h | relative to: untreated cells | log2 fold change | -0.833
CCN(CC)CC(=O)Nc1cccc(-n2cc(-c3ccc4ccc(-c5cn(-c6cccc(NC(=O)CN(CC)CC)c6)nn5)cc4c3)nn2)c1 | RCC4 | PCR angiogenesis array, item: TIMP2 | – | 5 x IC50, 6 h, normoxia | relative to: untreated | fold regulation | -1.42 fold
CO[C@@H]1[C@@H](OC(N)=O)[C@@H](O)[C@H](Oc2ccc3c(O)c(NC(=O)c4ccc(O)c(CC=C(C)C)c4)c(=O)oc3c2C)OC1(C)C | HCT-116 BRCA2-/- | – | – | 250 µM, replicate 2 | – | colony count | 0.1
C=CC(=O)Nc1cccc(Cn2ncc3cnc(Nc4cnn(CCOC)c4)nc32)c1 | MAP3K2 human | binding, KINOMEscan | – | 100 nM | lower = stronger binding | percent of control | 80%

Repeated from above:
Compound | tested on | assay | system | conditions | scale | measurement | result
CCN(CC)CC(=O)Nc1cccc(-n2cc(-c3ccc4ccc(-c5cn(-c6cccc(NC(=O)CN(CC)CC)c6)nn5)cc4c3)nn2)c1 | RCC4 | PCR angiogenesis array, item: TIMP2 | – | 5 x IC50, 6 h, normoxia | relative to: untreated | fold regulation | -1.42 fold
